Assay results from different studies.
Numbered parts are unrelated; each lists some results of a single study.
Sequence of UniProt Q9H4B4 (whole entry, looked up): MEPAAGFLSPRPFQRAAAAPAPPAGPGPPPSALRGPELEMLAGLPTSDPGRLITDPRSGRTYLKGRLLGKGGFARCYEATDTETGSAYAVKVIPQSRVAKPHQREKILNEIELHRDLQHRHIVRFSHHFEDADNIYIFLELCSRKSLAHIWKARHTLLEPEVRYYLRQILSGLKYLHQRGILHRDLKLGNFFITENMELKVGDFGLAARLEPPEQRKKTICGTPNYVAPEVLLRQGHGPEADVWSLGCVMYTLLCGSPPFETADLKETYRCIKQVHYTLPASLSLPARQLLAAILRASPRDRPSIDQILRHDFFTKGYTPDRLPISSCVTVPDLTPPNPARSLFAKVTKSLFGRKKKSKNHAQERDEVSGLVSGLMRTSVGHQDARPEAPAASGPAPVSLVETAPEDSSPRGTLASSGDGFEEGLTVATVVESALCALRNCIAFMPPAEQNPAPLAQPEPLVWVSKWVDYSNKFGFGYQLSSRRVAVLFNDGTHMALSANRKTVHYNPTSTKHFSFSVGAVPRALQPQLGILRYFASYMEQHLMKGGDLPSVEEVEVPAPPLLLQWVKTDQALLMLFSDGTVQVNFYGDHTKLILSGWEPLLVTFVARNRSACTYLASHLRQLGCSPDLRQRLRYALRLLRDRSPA
Sequence of UniProt P53355 (whole entry, looked up): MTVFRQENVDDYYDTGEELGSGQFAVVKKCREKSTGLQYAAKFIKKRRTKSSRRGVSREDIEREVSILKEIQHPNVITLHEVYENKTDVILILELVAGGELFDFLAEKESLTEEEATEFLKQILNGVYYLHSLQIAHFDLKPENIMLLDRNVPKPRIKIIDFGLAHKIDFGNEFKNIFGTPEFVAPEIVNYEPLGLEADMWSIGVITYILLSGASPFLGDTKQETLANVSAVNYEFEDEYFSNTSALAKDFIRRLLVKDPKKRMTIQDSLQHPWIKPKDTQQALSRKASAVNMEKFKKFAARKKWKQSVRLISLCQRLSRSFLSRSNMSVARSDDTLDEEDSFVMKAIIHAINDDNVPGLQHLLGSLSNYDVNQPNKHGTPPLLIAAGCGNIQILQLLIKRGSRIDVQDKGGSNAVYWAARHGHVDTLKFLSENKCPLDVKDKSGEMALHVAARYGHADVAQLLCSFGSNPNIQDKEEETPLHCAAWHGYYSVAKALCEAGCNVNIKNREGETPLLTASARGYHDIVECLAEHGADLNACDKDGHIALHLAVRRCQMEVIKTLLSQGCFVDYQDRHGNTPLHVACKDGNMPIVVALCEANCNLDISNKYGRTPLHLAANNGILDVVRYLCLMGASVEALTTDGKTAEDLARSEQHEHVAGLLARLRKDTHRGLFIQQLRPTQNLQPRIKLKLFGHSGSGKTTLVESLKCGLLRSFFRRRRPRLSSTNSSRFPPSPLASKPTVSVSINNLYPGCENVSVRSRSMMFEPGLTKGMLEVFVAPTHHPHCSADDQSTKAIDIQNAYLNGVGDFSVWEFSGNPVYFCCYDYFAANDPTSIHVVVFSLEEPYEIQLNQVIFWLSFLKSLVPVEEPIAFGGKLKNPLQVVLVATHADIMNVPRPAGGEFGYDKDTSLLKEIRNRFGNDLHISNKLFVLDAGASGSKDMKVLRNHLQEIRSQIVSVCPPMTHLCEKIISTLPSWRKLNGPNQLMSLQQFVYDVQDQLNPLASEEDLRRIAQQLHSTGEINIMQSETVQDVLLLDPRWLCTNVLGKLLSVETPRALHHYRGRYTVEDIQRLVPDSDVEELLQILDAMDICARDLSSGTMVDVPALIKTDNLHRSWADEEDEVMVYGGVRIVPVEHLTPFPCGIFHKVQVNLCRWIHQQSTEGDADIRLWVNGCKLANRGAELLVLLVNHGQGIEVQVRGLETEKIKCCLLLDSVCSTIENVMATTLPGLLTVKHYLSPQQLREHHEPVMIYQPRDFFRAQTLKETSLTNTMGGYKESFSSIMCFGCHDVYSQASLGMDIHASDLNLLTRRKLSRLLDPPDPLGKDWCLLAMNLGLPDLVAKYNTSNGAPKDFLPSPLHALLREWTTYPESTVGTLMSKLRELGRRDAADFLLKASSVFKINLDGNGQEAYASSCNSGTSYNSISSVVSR
Sequence of UniProt Q13882 (whole entry, looked up): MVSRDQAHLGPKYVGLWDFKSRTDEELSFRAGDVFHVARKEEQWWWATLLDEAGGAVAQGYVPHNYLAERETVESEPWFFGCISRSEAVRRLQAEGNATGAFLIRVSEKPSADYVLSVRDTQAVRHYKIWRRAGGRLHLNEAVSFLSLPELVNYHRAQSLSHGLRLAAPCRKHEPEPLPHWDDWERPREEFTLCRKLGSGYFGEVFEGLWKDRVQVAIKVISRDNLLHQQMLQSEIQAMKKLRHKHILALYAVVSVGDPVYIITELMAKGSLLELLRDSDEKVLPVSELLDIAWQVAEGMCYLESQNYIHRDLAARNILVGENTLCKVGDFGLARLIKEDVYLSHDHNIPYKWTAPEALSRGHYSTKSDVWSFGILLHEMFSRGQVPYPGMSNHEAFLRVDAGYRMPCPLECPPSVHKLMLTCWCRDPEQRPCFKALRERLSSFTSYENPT

Study 1
Structure (SMILES): CN(C(=O)c1ccccc1)c1cc(N(C)c2ccc3c(c2)CCc2ccc(C(=O)NCCN4CCOCC4)cc2C3=O)ccc1F
Read-out: cell-free assay
Method: competition with immobilised ligand
Tested at: 1 µM
target	remaining binding [%]
Receptor-type tyrosine-protein kinase FLT3 (FLT3, Homo sapiens, UniProt P36888, R834Q)	85
cAMP-dependent protein kinase catalytic subunit beta (PRKACB, Homo sapiens, UniProt P22694)	92
Tyrosine-protein kinase ABL1, non-phosphorylated (ABL1, Homo sapiens, UniProt P00519, T315I)	88
cAMP-dependent protein kinase catalytic subunit alpha (PRKACA, Homo sapiens, UniProt P17612)	100
Tyrosine-protein kinase receptor TYRO3 (TYRO3, Homo sapiens, UniProt Q06418)	100
Death-associated protein kinase 1 (DAPK1, Homo sapiens, UniProt P53355)	100
Ephrin type-A receptor 2 (EPHA2, Homo sapiens, UniProt P29317)	61
Serine/threonine-protein kinase PLK3 (PLK3, Homo sapiens, UniProt Q9H4B4)	100
Proto-oncogene tyrosine-protein kinase receptor Ret (RET, Homo sapiens, UniProt P07949, V804M)	89
Protein-tyrosine kinase 6 (PTK6, Homo sapiens, UniProt Q13882)	94

Study 2
Target: Serine/threonine-protein kinase WNK3 (WNK3, Homo sapiens, UniProt Q9BYP7)
Sequence of UniProt Q9BYP7 (whole entry, looked up): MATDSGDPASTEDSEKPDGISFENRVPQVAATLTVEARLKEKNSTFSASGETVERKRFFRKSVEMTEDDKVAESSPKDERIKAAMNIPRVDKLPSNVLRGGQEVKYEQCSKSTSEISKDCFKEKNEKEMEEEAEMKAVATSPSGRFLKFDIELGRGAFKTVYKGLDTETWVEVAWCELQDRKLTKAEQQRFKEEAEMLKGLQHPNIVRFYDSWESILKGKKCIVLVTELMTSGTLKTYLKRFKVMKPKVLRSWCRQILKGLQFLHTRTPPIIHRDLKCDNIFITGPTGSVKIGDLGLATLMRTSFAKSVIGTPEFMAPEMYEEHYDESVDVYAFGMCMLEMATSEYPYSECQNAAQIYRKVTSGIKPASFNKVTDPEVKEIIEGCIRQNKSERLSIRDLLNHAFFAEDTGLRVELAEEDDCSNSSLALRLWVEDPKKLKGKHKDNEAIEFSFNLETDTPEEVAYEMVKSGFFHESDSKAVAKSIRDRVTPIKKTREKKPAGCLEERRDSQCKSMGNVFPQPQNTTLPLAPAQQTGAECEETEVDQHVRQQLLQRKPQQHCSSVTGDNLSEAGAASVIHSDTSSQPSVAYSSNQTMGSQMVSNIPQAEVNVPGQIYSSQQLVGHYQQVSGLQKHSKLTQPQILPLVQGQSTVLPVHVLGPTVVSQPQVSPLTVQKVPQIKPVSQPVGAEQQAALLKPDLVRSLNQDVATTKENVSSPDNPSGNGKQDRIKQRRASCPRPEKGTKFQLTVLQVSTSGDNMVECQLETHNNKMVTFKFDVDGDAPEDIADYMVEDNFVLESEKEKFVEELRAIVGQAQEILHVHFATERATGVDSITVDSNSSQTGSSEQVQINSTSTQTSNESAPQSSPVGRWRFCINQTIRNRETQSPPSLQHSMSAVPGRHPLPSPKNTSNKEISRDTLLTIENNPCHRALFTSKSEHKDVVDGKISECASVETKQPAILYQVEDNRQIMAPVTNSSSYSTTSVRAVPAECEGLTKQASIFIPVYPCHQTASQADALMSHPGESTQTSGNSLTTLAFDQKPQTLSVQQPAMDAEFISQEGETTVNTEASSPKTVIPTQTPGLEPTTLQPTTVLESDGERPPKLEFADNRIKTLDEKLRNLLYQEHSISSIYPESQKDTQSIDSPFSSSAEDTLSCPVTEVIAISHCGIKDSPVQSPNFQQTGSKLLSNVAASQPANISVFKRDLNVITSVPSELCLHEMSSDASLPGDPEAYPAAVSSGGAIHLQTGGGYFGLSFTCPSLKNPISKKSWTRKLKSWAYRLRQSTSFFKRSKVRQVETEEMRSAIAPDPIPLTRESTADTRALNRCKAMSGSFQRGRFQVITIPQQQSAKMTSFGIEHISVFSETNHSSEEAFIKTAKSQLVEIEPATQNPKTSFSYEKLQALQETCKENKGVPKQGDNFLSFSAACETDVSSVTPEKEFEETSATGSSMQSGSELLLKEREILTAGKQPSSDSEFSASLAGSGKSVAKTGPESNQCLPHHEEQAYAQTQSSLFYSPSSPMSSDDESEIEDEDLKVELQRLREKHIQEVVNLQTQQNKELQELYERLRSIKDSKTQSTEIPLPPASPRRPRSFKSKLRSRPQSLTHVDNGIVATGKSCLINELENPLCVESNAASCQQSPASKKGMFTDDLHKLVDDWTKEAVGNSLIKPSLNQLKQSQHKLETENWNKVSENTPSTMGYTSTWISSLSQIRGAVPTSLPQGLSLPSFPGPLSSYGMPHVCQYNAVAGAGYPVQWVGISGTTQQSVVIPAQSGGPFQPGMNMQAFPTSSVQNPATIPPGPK
Read-out: enzyme activity
Action: inhibitor
Tested at: 0.5 µM
Relative to: control
SMILES	remaining activity [%]
Cn1sc(=O)n(Cc2ccccc2)c1=O	101
O=C(Nc1cccc(Nc2cc(Nc3cccc(C(F)(F)F)c3)ncn2)c1)C1CC1	100
Cc1ccc(Nc2nccc(N(C)c3ccc4c(C)n(C)nc4c3)n2)cc1S(N)(=O)=O	98.6
COc1ccc(C(=O)Nc2sc3c(c2C(N)=O)CCCC3)cc1OC	96.4
O=C(CCCc1ccc(-c2ccccc2F)cc1)Nc1ccc(O)cc1	109
Cc1ccc(NC(=O)c2ccc(CN3CCN(C)CC3)cc2)cc1Nc1nc(-c2cccnc2)cs1	99.9
Cc1nc(-c2ccccc2)c(-c2ccncc2)o1	106
CC(C)[C@H](CO)Nc1nc(Nc2cc(N)cc(Cl)c2)c2ncn(C(C)C)c2n1	76.9
O=C1NC(=O)C(c2cn(CCCO)c3ncccc23)=C1c1cnccn1	91.3
COc1ccc(CNC(=O)Nc2ncc([N+](=O)[O-])s2)cc1	101
CO[C@H]1C[C@@H]2CC[C@@H](C)[C@@](O)(O2)C(=O)C(=O)N2CCCC[C@H]2C(=O)O[C@H]([C@H](C)C[C@@H]2CC[C@@H](O)[C@H](OC)C2)CC(=O)[C@H](C)/C=C(\C)[C@@H](O)[C@@H](OC)C(=O)[C@H](C)C[C@H](C)/C=C/C=C/C=C/1C	102
Nc1[nH]nc2nc3ccccc3nc12	98
O=C(O)c1ccc2c3c1cccc3c(=O)n1c3ccccc3nc21	95.8
COc1cc2ncnc(Nc3ccc(Oc4ccccc4)cc3)c2cc1OC	87.8

Study 3
Target: Krueppel-like factor 3, full length (KLF3, Homo sapiens, UniProt P57682, residues 1-345)
Sequence of UniProt P57682 (whole entry, looked up): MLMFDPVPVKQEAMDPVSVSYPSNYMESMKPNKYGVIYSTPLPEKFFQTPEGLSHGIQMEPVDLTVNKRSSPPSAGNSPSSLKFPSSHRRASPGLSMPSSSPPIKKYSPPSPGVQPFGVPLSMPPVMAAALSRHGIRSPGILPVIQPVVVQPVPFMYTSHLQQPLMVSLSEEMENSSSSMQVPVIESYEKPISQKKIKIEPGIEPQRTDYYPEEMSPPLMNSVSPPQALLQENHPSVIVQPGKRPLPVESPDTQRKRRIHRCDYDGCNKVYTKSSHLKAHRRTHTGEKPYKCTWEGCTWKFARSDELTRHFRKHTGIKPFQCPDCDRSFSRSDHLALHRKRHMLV
Method: protein-binding microarray
Molecule type: hairpin DNA
Matrix: in vitro
Tested at: not given
Setting: whole hairpin DNA, median over replicate spots
Relative to: not given
Direction: higher = stronger binding
All sequences stand within: GAGGCCGAC … GTCGGCCTCACACTC
Oligonucleotide	median fluorescence [a.u.]
CGCGCCCCGCCTCCTGGCGGGGCGCG (5mC at 17)	9450
CGCGCCCGGCCTCCTGGCCGGGCGCG (5mC at 28)	9230
AGCGCCCAGCCTCCTGGCTGGGCGCT	8560
CAGGCCCAGCCTCCTGGCTGGGCCTG	7770
CACGCCCAGCCTCCTGGCTGGGCGTG (5mC at 38)	9670

Other studies, line by line
Substance	partner	method	matrix	added	measurement	value
JUP (Homo sapiens, UniProt P14923)	DSP (Homo sapiens, UniProt P15924)	cross-linking MS	cells	BSPNO	cross-linked residues	K487 to K94

For quick reference, copied from above (study 2):
SMILES	remaining activity [%]
CC(C)[C@H](CO)Nc1nc(Nc2cc(N)cc(Cl)c2)c2ncn(C(C)C)c2n1	76.9
O=C1NC(=O)C(c2cn(CCCO)c3ncccc23)=C1c1cnccn1	91.3
COc1ccc(CNC(=O)Nc2ncc([N+](=O)[O-])s2)cc1	101
